# Assay results gathered from unrelated publications.
# Lines come from different studies, so protocols differ.
# 4'-phosphopantetheinyl transferase PptT: 4'-phosphopantetheinyl transferase PptT (Mycobacterium tuberculosis, UniProt O33336)
# Chain of UniProt O33336 (whole entry, looked up): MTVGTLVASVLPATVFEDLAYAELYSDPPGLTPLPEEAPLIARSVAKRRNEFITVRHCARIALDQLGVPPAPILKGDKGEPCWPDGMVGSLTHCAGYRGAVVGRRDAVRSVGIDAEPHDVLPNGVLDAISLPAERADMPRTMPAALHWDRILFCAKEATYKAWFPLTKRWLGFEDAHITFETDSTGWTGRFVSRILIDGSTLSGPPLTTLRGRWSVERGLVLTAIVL
# HLA class I histocompatibility antigen, A alpha chain: HLA class I histocompatibility antigen, A alpha chain (Homo sapiens, UniProt P04439)
# Chain of UniProt P41595 (whole entry, looked up): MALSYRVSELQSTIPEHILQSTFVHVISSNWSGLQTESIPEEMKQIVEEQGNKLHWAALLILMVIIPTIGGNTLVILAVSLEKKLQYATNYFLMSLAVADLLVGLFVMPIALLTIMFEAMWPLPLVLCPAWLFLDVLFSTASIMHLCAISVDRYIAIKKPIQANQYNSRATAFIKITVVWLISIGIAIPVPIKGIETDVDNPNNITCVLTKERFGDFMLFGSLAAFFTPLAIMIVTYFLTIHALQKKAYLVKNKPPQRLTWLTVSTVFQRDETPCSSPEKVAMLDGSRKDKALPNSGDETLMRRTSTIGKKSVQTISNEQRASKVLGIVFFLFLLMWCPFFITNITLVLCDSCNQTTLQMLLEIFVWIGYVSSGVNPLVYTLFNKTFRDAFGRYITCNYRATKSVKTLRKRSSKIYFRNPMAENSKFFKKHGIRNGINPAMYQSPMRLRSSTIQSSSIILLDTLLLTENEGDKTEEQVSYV
# Chain of UniProt Q07011 (whole entry, looked up): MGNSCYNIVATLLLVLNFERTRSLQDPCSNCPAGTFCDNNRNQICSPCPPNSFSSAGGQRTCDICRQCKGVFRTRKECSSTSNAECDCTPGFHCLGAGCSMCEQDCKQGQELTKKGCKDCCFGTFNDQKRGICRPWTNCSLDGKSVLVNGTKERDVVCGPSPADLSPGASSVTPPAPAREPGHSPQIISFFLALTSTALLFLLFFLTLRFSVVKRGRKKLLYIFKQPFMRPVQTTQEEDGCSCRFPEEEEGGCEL
# Chain of UniProt P27037 (whole entry, looked up): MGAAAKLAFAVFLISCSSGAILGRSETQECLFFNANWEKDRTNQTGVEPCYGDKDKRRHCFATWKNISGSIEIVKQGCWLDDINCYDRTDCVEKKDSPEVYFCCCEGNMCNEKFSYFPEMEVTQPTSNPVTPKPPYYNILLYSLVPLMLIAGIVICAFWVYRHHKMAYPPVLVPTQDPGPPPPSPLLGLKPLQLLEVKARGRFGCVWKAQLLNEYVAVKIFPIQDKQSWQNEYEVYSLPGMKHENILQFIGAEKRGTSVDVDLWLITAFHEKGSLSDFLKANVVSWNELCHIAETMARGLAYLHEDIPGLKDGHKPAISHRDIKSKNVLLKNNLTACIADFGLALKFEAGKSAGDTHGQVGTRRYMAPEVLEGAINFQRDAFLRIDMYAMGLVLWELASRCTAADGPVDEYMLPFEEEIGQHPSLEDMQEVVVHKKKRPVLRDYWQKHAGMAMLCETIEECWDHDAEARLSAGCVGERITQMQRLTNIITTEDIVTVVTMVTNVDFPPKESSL
# Chain of UniProt Q9NUW8 (whole entry, looked up): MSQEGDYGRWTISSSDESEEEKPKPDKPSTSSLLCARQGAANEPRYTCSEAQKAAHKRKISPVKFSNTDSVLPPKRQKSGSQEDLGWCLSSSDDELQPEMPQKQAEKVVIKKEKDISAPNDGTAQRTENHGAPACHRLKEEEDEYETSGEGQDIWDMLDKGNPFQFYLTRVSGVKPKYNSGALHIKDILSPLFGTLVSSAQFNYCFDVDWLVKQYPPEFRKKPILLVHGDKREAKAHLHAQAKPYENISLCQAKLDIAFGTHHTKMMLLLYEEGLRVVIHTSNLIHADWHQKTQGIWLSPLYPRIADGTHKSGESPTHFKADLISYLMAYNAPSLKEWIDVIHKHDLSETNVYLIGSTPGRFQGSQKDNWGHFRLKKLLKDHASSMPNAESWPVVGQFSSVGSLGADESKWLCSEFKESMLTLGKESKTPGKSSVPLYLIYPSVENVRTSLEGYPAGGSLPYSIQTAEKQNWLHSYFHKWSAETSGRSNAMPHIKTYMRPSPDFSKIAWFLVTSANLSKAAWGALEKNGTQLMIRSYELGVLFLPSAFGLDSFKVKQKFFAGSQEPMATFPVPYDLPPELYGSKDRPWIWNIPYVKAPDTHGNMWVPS
# Chain of UniProt Q96PN8 (whole entry, looked up): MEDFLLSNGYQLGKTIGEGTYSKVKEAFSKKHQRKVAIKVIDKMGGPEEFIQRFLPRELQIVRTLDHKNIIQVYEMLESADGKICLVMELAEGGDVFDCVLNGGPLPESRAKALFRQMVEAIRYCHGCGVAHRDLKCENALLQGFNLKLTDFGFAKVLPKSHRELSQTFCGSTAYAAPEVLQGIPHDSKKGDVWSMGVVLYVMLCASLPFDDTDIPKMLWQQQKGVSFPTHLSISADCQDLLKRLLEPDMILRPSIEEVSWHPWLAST
# Chain of UniProt Q07869 (whole entry, looked up): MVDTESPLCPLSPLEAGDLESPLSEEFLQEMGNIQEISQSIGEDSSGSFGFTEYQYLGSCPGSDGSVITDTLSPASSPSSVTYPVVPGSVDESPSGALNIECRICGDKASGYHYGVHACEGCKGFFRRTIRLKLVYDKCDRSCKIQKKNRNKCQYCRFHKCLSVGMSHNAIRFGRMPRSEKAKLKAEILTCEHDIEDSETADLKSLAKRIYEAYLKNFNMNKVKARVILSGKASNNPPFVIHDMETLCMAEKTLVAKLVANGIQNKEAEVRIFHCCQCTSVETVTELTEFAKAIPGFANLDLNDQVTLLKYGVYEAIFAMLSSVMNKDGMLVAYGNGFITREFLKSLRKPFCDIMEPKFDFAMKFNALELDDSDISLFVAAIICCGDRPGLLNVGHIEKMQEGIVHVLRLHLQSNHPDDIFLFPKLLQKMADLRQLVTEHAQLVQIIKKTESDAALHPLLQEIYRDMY
# Chain of UniProt Q9P0L9 (whole entry, looked up): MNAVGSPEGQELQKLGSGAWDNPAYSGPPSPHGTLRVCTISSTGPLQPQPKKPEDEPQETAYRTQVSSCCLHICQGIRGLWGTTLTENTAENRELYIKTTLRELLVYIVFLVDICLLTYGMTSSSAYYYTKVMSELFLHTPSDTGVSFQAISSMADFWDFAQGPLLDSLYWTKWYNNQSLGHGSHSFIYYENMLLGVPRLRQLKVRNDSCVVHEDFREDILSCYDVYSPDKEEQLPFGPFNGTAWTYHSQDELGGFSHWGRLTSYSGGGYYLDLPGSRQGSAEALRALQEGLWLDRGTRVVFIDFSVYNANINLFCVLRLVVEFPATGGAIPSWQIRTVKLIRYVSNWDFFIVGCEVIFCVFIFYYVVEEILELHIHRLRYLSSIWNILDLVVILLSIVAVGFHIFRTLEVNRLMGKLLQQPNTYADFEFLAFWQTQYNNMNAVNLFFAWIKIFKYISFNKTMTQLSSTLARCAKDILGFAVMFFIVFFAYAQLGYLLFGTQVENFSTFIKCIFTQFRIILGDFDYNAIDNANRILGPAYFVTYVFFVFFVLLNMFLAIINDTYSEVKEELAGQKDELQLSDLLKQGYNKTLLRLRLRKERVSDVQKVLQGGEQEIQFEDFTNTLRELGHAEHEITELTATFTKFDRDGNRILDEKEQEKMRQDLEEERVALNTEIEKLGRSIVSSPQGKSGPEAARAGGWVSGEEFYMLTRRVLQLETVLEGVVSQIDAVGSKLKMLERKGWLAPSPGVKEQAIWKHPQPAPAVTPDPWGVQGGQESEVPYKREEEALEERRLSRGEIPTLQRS
# Chain of UniProt P68400 (whole entry, looked up): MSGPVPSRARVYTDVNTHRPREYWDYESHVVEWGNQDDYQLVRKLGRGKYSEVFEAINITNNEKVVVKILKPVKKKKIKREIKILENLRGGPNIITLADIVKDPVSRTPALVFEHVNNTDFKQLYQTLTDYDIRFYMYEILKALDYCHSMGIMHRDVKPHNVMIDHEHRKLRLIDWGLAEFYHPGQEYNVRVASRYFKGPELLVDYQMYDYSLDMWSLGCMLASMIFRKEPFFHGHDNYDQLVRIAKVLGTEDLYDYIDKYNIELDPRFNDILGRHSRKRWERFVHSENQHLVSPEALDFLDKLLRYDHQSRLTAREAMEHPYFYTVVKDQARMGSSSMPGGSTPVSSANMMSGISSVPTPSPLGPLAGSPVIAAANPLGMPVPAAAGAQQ
# Chain of UniProt P34972 (whole entry, looked up): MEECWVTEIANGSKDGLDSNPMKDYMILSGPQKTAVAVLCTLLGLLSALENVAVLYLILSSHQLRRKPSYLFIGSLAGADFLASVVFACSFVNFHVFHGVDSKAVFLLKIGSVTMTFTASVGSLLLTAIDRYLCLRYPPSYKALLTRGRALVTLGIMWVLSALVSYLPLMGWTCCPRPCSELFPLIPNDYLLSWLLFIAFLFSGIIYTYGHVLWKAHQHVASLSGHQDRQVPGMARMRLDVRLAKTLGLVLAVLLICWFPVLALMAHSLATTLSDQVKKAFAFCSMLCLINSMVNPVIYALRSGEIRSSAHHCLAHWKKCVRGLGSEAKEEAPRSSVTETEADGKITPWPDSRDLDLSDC
Compound,target,observed,action,technique,concentration,measurement,result
CCOC(=O)C1=C(C)NC(C)=C(C(=O)OC)C1c1cccc([N+](=O)[O-])c1 (centres unmarked),"Voltage-dependent L-type calcium channel subunit alpha-1C (Cacna1c, Rattus norvegicus, UniProt P22002)",ligand displacement,,radioligand,,Ki,0.00022 µM
O=c1[nH]c2cc(CO)c(Cl)cc2c(=O)n1Cc1cncnc1,4'-phosphopantetheinyl transferase PptT,enzyme activity,inhibitor,FP,,IC50,53.9 µM
"COc1cc(CCNC(C)c2ccccc2O)c(OC)cc1C#N (single isomer, unassigned; (-))","5-hydroxytryptamine receptor 2B (HTR2B, Homo sapiens, UniProt P41595)",G protein activation,agonist,BRET,,EC50,2.8 µM
CC[C@H](C)[C@H](NC(=O)[C@@H]1CCCN1C(=O)[C@H](CCCCN)NC(=O)[C@@H]1CCCN1C(=O)[C@H](CCSC)NC(=O)[C@H](CCC(N)=O)NC(=O)[C@@H](N)Cc1ccc(O)cc1)C(=O)N[C@H](C(=O)N[C@@H](Cc1ccccc1)C(=O)O)[C@@H](C)O,"HLA class I histocompatibility antigen, A alpha chain",cell-free assay,,,,IC50,5.81 µM
CCCCC(CC)COC(=O)c1ccccc1C(=O)O (centres unmarked),"Peroxisome proliferator-activated receptor alpha (PPARA, Homo sapiens, UniProt Q07869)",reporter gene,agonist,luciferase,,EC50,5.2 µM
CSCC[C@H](NC(=O)[C@@H](N)CCCNC(=N)N)C(=O)N[C@@H](Cc1ccccc1)C(=O)NCC(=O)N1CCC[C@H]1C(=O)N1CCC[C@H]1C(=O)N[C@@H](CC(C)C)C(=O)N[C@H](C(=O)N[C@@H](Cc1ccccc1)C(=O)O)[C@@H](C)O,"HLA class I histocompatibility antigen, A alpha chain",cell-free assay,,,,IC50,0.099 µM
CCCC[C@@H]1NC(=O)[C@H](Cc2ccc(O)cc2)NC(=O)[C@@H]2CCCN2C(=O)[C@H](CC(=O)O)NC(=O)[C@H](C)NC(=O)[C@H](Cc2ccccc2)NC(=O)[C@@H]2CSCCC(=O)N3CN(CN(C3)C(=O)CCSC[C@@H](C(=O)N[C@@H](CNC(=O)CCc3cn(CCOCCOCCOCCOCCOCCOCCOCCOCCOCCOCCOCCOCCOCCOCCOCCOCCOCCOCCOCCOCCOCCOCCOCCNC(=O)N[C@H]4CSCCC(=O)N5CN6CN(C5)C(=O)CCSC[C@H](NC(=O)[C@@H](CC(=O)O)NC(=O)[C@H](Cc5cccc7ccccc57)NC(=O)[C@@H]5CCCN5C4=O)C(=O)N[C@@H](CCSC)C(=O)N[C@@H](CCCCNC(=N)N)C(=O)N[C@@H](CC(=O)O)C(=O)N[C@@H](Cc4c[nH]c5ccccc45)C(=O)N[C@@H](CO)C(=O)N[C@@H]([C@@H](C)O)C(=O)N4CCC[C@H]4C(=O)N4C[C@H](O)C[C@H]4C(=O)N[C@@H](Cc4c[nH]c5ccccc45)C(=O)N[C@H](C(N)=O)CSCCC6=O)nn3)C(N)=O)NC1=O)C(=O)CCSC[C@H](NC(=O)[C@H](C)NC(C)=O)C(=O)N[C@@H]([C@@H](C)CC)C(=O)N[C@@H](CCC(=O)O)C(=O)N[C@@H](CCC(=O)O)C(=O)NCC(=O)N[C@@H](CCC(N)=O)C(=O)N[C@@H](Cc1ccc(O)cc1)C(=O)N2,"Tumor necrosis factor receptor superfamily member 9 (Homo sapiens, UniProt Q07011)",binding,,SPR,,Kd,0.053 µM
C[C@]12CC[C@@H](O)C[C@@H]1CC[C@@H]1[C@@H]2CC[C@]2(C)C(=O)CC[C@@H]12,"Cannabinoid receptor 2 (CNR2, Homo sapiens, UniProt P34972)",cAMP,agonist,,,EC50,4.67 µM
Cc1nn(C)cc1-c1nc2c(N3CCN(Cc4ccc(Cl)cc4)CC3)c(Cl)cnc2[nH]1,"Activin receptor type-2A (ACVR2A, Homo sapiens, UniProt P27037)",binding,,competition with immobilised ligand,1 µM,remaining binding,100%
CC(C)C(=O)OCc1cc2[nH]c(=S)n(Cc3cncc(C(N)=S)c3)c(=O)c2cc1Cl,4'-phosphopantetheinyl transferase PptT,enzyme activity,inhibitor,FP,,IC50,> 100 µM
[2H]c1c([2H])c([C@]2([2H])CCCN2C(=O)C(C)(C)Oc2ccc3cn[nH]c3c2)c([2H])c([2H])c1C([2H])([2H])[2H],"Testis-specific serine/threonine-protein kinase 3 (TSSK3, Homo sapiens, UniProt Q96PN8)",binding,,competition with immobilised ligand,1 µM,remaining binding,98%
O=c1c2cc(Cl)ccc2[nH]c(=S)n1C(CCc1ccccc1)c1cccnc1 (centres unmarked),4'-phosphopantetheinyl transferase PptT,enzyme activity,inhibitor,FP,,IC50,0.19 µM
COc1ncccc1-c1cnn2ccc(N3CCN(C(=O)OC(C)C)CC3)nc12,"Tyrosine-protein kinase receptor Tie-1 (TIE1, Homo sapiens, UniProt P35590)",binding,,competition with immobilised ligand,1 µM,remaining binding,100%
Nc1ncc(-c2nc(N3CCOCC3)nc(N3CCOCC3)n2)c(C(F)F)n1,"Casein kinase II subunit alpha (CSNK2A1, Homo sapiens, UniProt P68400)",binding,,competition with immobilised ligand,10 µM,remaining binding,79%
CCCCOc1cc(C(=O)NCCN(CC)CC)c2ccccc2n1,"PKD2L1 (Homo sapiens, UniProt Q9P0L9)",ion current,inhibitor,patch clamp,,IC50,8 µM
CS(=O)(=O)c1ccc2nc(-c3ccccc3)c(Nc3ccc(C(=O)O)cc3)n2c1,"Tyrosyl-DNA phosphodiesterase 1 (TDP1, Homo sapiens, UniProt Q9NUW8)",enzyme activity,inhibitor,fluorescence,,IC50,3.03 µM
O=c1c2ccncc2[nH]c(=S)n1Cc1cccnc1,4'-phosphopantetheinyl transferase PptT,enzyme activity,inhibitor,FP,,IC50,8.99 µM

# A few entries again:
Compound,target,observed,action,technique,concentration,measurement,result
O=c1[nH]c2cc(CO)c(Cl)cc2c(=O)n1Cc1cncnc1,4'-phosphopantetheinyl transferase PptT,enzyme activity,inhibitor,FP,,IC50,53.9 µM
CC[C@H](C)[C@H](NC(=O)[C@@H]1CCCN1C(=O)[C@H](CCCCN)NC(=O)[C@@H]1CCCN1C(=O)[C@H](CCSC)NC(=O)[C@H](CCC(N)=O)NC(=O)[C@@H](N)Cc1ccc(O)cc1)C(=O)N[C@H](C(=O)N[C@@H](Cc1ccccc1)C(=O)O)[C@@H](C)O,"HLA class I histocompatibility antigen, A alpha chain",cell-free assay,,,,IC50,5.81 µM
